Published values from different studies.
Parts stem from different laboratories: compare values within a part only.

Set 1 — technique: RNA Bind-n-Seq; form: RNA; matrix: in vitro; concentration: 365 nM; relative to: no-protein control; direction: higher = stronger binding
Target: RNA binding protein fox-1 homolog 2, RRM domain, GST-SBP tag (RBFOX2, Homo sapiens, UniProt O43251-10, residues 100-194)
Notes: natural RNA segment, single round, ends assumed
Residues (chain): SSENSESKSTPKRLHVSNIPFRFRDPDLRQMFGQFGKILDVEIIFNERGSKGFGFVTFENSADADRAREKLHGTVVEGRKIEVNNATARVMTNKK
Under “RBNS enrichment (R)”, `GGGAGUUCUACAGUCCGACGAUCGUGUGUGUGUGUGUUCACACAUGUGUGUCUUCACAUGUAUAGAAGUAGCCCUGUAAGGAGGGGCAGAGUGGCUGGUGCUACAGACGUCACAUGGGCUCUUUGGGGGUCUGUGGAAUUCUCGGGUGCCAA` is recorded as 0.482.
`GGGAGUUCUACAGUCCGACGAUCGUUGACCCCAUGUUUCAGAUCCUGGAACAAGCAUCCAAGAGUAACAGAACUUUCUGAGCUGGCAAAGGCUUAAACAUCUGCCUGGGUUCAGCAGGCAACCUGCCCGUCUGUGGAAUUCUCGGGUGCCAA`: “RBNS enrichment (R)” 0.417.
`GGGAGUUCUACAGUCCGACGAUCUAAUACAGUCCAGCUGAAAGUAGGAAAUGACUGACCUGUAGGGUUAUAGGGUCCCUGAAUCACUGAUCUUCAACAGGGCAUUUUAAUAUUAGCAUUAGUGUGCACAGGGUUGGAAUUCUCGGGUGCCAA` — result for “RBNS enrichment (R)”: 0.753.
Under “RBNS enrichment (R)”, `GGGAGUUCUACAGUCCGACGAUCCAGGCCAGUGUCUGCAGAGCCUCAGUUACCAGGUUUGGUUUCUGAGUGCCUAUCUGUGCUCUUUCCUCCCUCUGCGGGCUUCUCUUGCUCUGAGCCUCCCUUCCCCAUUCUGGAAUUCUCGGGUGCCAA` is recorded as 0.26.
For `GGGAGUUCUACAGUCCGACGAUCAUAGAUAUAAAGUAAAAUUAUGUUAUUAAUUUGGUUUAGUCUGUAAUAUUACACAGUAAUGGUAAUUUAUAAAGGAGUGUAUAGUAGUAUACUGACUGCUAAGUGUACUAUGGAAUUCUCGGGUGCCAA`, “RBNS enrichment (R)” read 0.766.
Under “RBNS enrichment (R)”, `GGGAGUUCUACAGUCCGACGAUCCAGUUACCAGCCUCCUUCCUGCUUCUCUGCCAGGCCACAGAGAAAGCCUUGGAAGGCUGCUUGCUCAUCUCACACCAUGCCUGGGCCAUGCCUUCCUCACCUCUGGAGCAUGGAAUUCUCGGGUGCCAA` is recorded as 0.874.
Under “RBNS enrichment (R)”, `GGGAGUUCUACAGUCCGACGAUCCUAGCCCUUAGAACUACCACCCUGAAGCAUCUUUGUUUCCUGUGUUCAGACGCAGACGAAGACCAACAUUGUUUUAUAUGUUGAAUUUAUAAAAUGCUAGUAAUUUAGAAUGGAAUUCUCGGGUGCCAA` is recorded as 0.555.
For `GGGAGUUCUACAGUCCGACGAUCCCUGUGCCAGUGCUUUCCUAAGCAGUAUACCUUUAAUCAGAACUCAUUCCCAGAACCUGGAUGCUAUUACACAUGCUUUUAAGAAACGUCAAUGUAUAUCCUUUUAUAACUGGAAUUCUCGGGUGCCAA`, “RBNS enrichment (R)” read 0.857.

Set 2 — technique: protein-binding microarray; form: double-stranded DNA, one strand shown; matrix: in vitro; concentration: 2200 nM top; notes: 60-bp whole probe; added: salmon DNA 0.4 mg/ml; relative to: random background probes; direction: higher = stronger binding; shared flanks, not repeated: GCCTAGCAC … GTCTTGATTCGCTTGACGCTGCTG
Target: Interferon regulatory factor 7, full length, phosphomimetic (IRF7, Homo sapiens, UniProt Q92985, residues 1-503, S471D/S472D/S475D/S476D/S477D/S483D/S484D/S487D)
UniProt Q92985, sequence (whole entry, unmodified, looked up): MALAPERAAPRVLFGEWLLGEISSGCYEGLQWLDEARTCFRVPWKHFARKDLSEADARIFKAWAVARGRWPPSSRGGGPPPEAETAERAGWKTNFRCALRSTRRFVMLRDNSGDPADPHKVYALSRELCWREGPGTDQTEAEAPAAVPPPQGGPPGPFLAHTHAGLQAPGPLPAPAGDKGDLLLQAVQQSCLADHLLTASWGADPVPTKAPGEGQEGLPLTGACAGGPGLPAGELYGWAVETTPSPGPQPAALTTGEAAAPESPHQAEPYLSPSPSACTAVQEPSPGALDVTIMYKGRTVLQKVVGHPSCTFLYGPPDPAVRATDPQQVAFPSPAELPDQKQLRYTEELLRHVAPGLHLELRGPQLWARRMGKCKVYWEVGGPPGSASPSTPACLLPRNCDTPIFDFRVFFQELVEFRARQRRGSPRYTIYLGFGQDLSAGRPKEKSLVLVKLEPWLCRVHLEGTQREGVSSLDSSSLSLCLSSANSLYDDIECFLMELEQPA
`TTAGATCTGAGTTTCGATTAGTGCTAG` — result for “fitted relative affinity”: 4.14 z-score.
For `GACGAACTGGACTATCGGGACGTGCTA`, “fitted relative affinity” read -0.489 z-score.
`TCATGTCTGTTTCCTCTTACTGTGCTA`: “fitted relative affinity” 2.91 z-score.
`TAGGGACTCGGGTCTCCCTTGGTGCTA` — result for “fitted relative affinity”: -0.514 z-score.
Under “fitted relative affinity”, `GACGGTATCGACACTGGGCACGTGCTA` is recorded as -0.457 z-score.
Under “fitted relative affinity”, `TTAGATCTCAGTATGGATTAGTGCTAG` is recorded as -0.095 z-score.
`TTAGCTATCGGGTTTCGATTAGTGCTA`: “fitted relative affinity” 2.72 z-score.
`GACGGTGTCGACTATCGGGACGTGCTA` — result for “fitted relative affinity”: -0.0586 z-score.
For `TCACATCTGCAAGATCCAACTGTGCTA`, “fitted relative affinity” read 0.995 z-score.
`GACGGACTGGGTATCGGGCCGTGCTAG`: “fitted relative affinity” -1.22 z-score.
Under “fitted relative affinity”, `TACGATATCAGACTGGAGACGTGCTAG` is recorded as -0.00861 z-score.
Under “fitted relative affinity”, `GATGGTATCGGTTTCGGGACGTGCTAG` is recorded as 4.03 z-score.
`TTAGGACTGGGACTCGGTTAGTGCTAG`: “fitted relative affinity” -0.299 z-score.
`GACGATTTCGGGTTTCCAGACGTGCTA` — result for “fitted relative affinity”: 4.99 z-score.
Under “fitted relative affinity”, `TTAGGACGGGACTATCGGTTAGTGCTA` is recorded as -0.515 z-score.
`TTTTTTTTGGAATGTCTTCCCGTGCTA` — result for “fitted relative affinity”: 1.34 z-score.
Under “fitted relative affinity”, `TCATGTGTCTTAAATAGGACTGTGCTA` is recorded as 0.119 z-score.
Under “fitted relative affinity”, `TTAGAACTGCGTTTCGATTAGTGCTAG` is recorded as 1.73 z-score.
`TTAGACCTGAGACTGGATTAGTGCTAG` — result for “fitted relative affinity”: -0.606 z-score.

Set 3 — technique: RNA Bind-n-Seq; form: RNA; matrix: in vitro; concentration: 1 µM; notes: whole 134-nt RNA, ends assumed; added: 150 mM KCl; relative to: input library; direction: higher = stronger binding
Target: Ras GTPase-activating protein-binding protein 1, C-terminal RGG region (G3BP1, Homo sapiens, UniProt Q13283)
UniProt Q13283, sequence (whole entry, looked up): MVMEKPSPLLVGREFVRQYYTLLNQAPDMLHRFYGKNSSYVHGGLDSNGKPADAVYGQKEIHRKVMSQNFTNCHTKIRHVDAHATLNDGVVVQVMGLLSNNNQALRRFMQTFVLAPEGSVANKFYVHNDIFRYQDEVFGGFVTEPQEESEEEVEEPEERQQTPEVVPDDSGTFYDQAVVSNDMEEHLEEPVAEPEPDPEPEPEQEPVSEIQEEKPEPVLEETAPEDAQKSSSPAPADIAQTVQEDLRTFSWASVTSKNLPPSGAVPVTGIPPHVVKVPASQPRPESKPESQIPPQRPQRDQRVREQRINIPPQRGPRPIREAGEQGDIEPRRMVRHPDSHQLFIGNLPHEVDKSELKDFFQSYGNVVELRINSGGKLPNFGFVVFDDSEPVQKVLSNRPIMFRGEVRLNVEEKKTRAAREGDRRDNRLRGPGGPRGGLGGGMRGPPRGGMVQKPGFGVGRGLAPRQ
`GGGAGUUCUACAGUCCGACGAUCACCAUGCAGGUGGGCAUCUUUGGGAAGUGGGGCAAGGGGGGGAUAGGGAGGGGGGUAACACUUUUGGAACAGGUGGUCCCAGGUCGUUUCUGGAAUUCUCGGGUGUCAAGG` has a log2 enrichment of 2.55.
`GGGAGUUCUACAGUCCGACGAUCGUCCUGUGCUACACAUCGUAUGUACCGAAUCGGGAAAAAGGGUUUUUGGGAAAAAGGGAAAGUAUUAUGUUACGCCGUUCGGAUCUGCACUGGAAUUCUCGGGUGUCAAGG` has a log2 enrichment of -0.702.
`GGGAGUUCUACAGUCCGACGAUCGGCAAGAGGAGGAACGACGUAGAAGAGAGGAAGAGAUGAUGAUUCGUCAACGUGAGAUGGAAGAACAAAUGAGGCGCCAAAGAGAGGAAAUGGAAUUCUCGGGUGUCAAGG` has a log2 enrichment of -0.483.
The log2 enrichment of `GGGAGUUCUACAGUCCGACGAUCUCAAGUCCUGUGCUACACAUCGUAUGUACCGAAUCGGGUGGGUGGGUUUUUGGGAAAGUAUUAUGUUACGCCGUUCGGAUCUGCACUUCCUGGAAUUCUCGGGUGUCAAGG` is reported as 1.4.
For `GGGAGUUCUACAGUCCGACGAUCUUGCAGCAACUGCUACCAGCCUCCCAGUCCACACAGCUGCCAUGCUCAAGUUCCCCUCAGGAGACCACCCAGUCUCGCCCUAUGCCGCCGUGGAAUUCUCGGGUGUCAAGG`, the log2 enrichment was 0.217.
For `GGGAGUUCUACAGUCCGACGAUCUCAAGUCCUGUGCUACACAUCGUAUGUACCGAAUCGGGAAAGGGAAAGGAAAGGAAAGUAUUAUGUUACGCCGUUCGGAUCUGCACUUCCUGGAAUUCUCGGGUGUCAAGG`, the log2 enrichment was -1.54.
`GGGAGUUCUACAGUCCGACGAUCACCAUGCAGGUGGGCAUCUUUGGGAAGUGGGGCCAGGGGGGGAUAGGGAGGGGGGUAACACUUUGGGAACAGGUGGUCCCAGGUCGUUUCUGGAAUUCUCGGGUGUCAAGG` has a log2 enrichment of -1.28.
The log2 enrichment of `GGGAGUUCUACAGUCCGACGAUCGUCCUGUGCUACACAUCGUAUGUACCGAAUCAAAUUUUUAAACCCCCAAACCCCCAAAAAAGUAUUAUGUUACGCCGUUCGGAUCUGCACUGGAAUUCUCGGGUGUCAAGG` is reported as -0.901.
`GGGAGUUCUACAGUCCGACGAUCCACAGACAACACGCACCCACACAGACACAGAGGGAAGGGGUUGGGAUGGGGACAGGGUGCACAGCAGGGCGGGGUAGAACCCCAGCCCCUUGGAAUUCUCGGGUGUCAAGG` gave a log2 enrichment of -0.926.

Set 4 — technique: protein binding microarray; form: double-stranded DNA, one strand shown; matrix: in vitro; concentration: not given; relative to: not given; direction: higher = stronger binding
Target: Histone acetyltransferase KAT6A, winged helix 2, GST fusion (KAT6A, Homo sapiens, UniProt Q92794, residues 85-181)
Notes: 8-mer, flanks averaged, mean of 2 arrays, mostly near background
Construct (chain): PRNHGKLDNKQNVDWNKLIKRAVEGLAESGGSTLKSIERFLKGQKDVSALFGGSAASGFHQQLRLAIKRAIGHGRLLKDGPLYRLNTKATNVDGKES
The E-score of `AATGAAGT` is reported as -0.0535.
`AACTTGTG` gave an E-score of 0.114.
For `GAGTGAAC`, the E-score was -0.124.
`GGCCAACC` gave an E-score of 0.0831.
`AATGGCAA` has an E-score of 0.126.
`CGTAAGGA` gave an E-score of -0.182.
With `GCACCAAC` the E-score was 0.182.
`GGCCGAAC` has an E-score of 0.124.
`AATGATTA` has an E-score of 0.022.
For `AACCGGAG`, the E-score was 0.156.
`ATATATGG` gave an E-score of 0.0524.
With `GCGCGAGC` the E-score was 0.179.
`CCAAAGAC` gave an E-score of 0.0477.
`GACGATCA` gave an E-score of -0.0976.
`AGCTTGGC` has an E-score of 0.0683.
`AGTTTGTC` has an E-score of 0.127.
With `CACTTGCG` the E-score was 0.0451.
For `AAATTGTC`, the E-score was -0.126.
`AGTTCCTG` gave an E-score of -0.0787.
With `CGCAGAGA` the E-score was -0.00924.
For `GCCTGCGC`, the E-score was 0.168.
`GCCTTAGC` gave an E-score of 0.113.
With `CCCAACCC` the E-score was -0.164.
`GTTTGTTA` has an E-score of 0.217.
`GGGCTACC` has an E-score of -0.0499.
